Assay results pooled from the literature.
Lines come from different studies, so protocols differ. Numbers after ± are the reported error. No end group written: not given here.
B1: UGT1A9 (Homo sapiens, UniProt O60656); chain GKLLVVPMDGSHWFTMRSVVEKLILRGHEVVVVMPEVSWQLGRSLNCTVKTYSTSYTLEDLDREFKAFAHAQWKAQVRSIYSLLMGSYNDIFDLFFSNCRSLFKDKKLVEYLKESSFDAVFLDPFDNCGLIVAKYFSLPSVVFARGILCHYLEEGAQCPAPLSYVPRILLGFSDAMTFKERVRNHIMHLEEHLLCHRFFKNALEIASEILQTPVTEYDLYSHTSIWLLRTDFVLDYPKPVMPNMIFIGGINCHQGKPLPMEFEAYINASGEHGIVVFSLGSMVSEIPEKKAMAIADALGKIPQTVLWRYTGTRPSNLANNTILVKWLPQNDLLGHPMTRAFITHAGSHGVYESICNGVPMVMMPLFGDQMDNAKRMETKGAGVTLNVLEMTSEDLENALKAVINDKSYKENIMRLSSLHKDRPVEPLDLAVFWVEFVMRHKGAPHLRPAAHDLTWYQYHSLDVIGFLLAVVLTVAFITFKCCAYGYRKCLGKKGRVKKAHKSKTH

| Substance | target or system | assay | system | setting | scale | measurement | result |
| --- | --- | --- | --- | --- | --- | --- | --- |
| insulin degludec | – | ELISA | human moderate renal impairment, serum | dose not given, single dose | reference: impaired over normal renal function | AUC(0-inf) ratio | 1.11 |
| insulin aspart | – | UPLC-MS/MS | human, healthy subjects, plasma | subcutaneous, 0.2 U/kg single dose, 4 h, euglycaemic clamp | – | AUC(0-t) | 6.97 ng·h/mL |
| insulin aspart | – | – | obese type 2 diabetes patients, serum | subcutaneous, 0.2 U/kg, geometric mean | – | AUC(0-1 h) | 138 pmol·h/L |
| AFTCHCRRSCYSTEYSYGTCTVMGINHRACCL (disulfide (positions not given here); ends not checked; sequence looked up) | – | analytical ultracentrifugation | peptide, 10 mM sodium phosphate | 40 to 160 µM, pH 7.4, 20 °C | – | sedimentation coefficient s20,w | ~1.2 S |
| B1 (UGT1A9) | O=c1c(O)c(-c2ccc(O)c(O)c2)oc2ccccc12 | steady-state kinetics | – | pH 7.4, 37 °C | – | Vmax | 0.0022 µmol/min/mg |
| COc1cccc2c1C(=O)c1c(O)c3c(c(O)c1C2=O)C[C@@](O)(C(=O)CO)C[C@@H]3O[C@H]1C[C@H](NC(=O)[C@@H]2CCCN2C(=O)CN)[C@H](O)[C@H](C)O1 | – | – | mouse, E0771 tumour-bearing, heart | intravenous, 92 µmol/kg PhAc-ALGP-Dox | – | AUC | 2.3 µM·h |
| rnpA F107W (Bacillus subtilis) | – | NMR, item: His105 | – | 25 °C, 20 ± 1 mM, unfolded state, no sulfate, numbering of the source | – | pKa | 5.76 |
| CSCC[C@H](NC(=O)[C@H](CC(C)C)NC(=O)[C@H](Cc1c[nH]cn1)NC(=O)CNC(=O)[C@@H](NC(=O)[C@H](C)NC(=O)[C@H](Cc1c[nH]c2ccccc12)NC(=O)[C@H](CCC(N)=O)NC(=O)CCCCCNC(=O)[C@H](CCC(=O)NCCCC[C@@H]1NC(=O)[C@@H](Cc2ccc(O)cc2)NC(=O)[C@H](CC(=O)O)NC(=O)CNC(=O)[C@H](CCCNC(=N)N)NC1=O)NC(=O)CN1CCN(CC(=O)O)CCN(CC(=O)O)CC1)C(C)C)C(N)=O [copper-64 labelled] | – | – | ICR SCID mouse, female, spleen | intravenous, 750 kBq, 4 h | – | tissue uptake | 1.06 ± 0.43 %ID/g |
| Insulin human | – | ELISA | rat, hippocampus | intranasal, 20 µg per nostril, 15 min | – | concentration | 141 ± 82.6 pg/mg tissue |
| insulin | – | HPLC-UV | diabetic rat, plasma | subcutaneous, 4.0 IU/kg | – | Cmax | 88 ± 22.3 µg/mL |
| COc1cccc2c1C(=O)c1c(O)c3c(c(O)c1C2=O)C[C@@](O)(C(=O)CO)C[C@@H]3O[C@H]1C[C@H](NC(=O)[C@@H]2CCCN2C(=O)CNC(=O)[C@@H](N)CC(C)C)[C@H](O)[C@H](C)O1 | – | – | mouse, E0771 tumour-bearing, plasma | intravenous, 92 µmol/kg PhAc-ALGP-Dox | – | AUC | 0.133 µM·h |
| CC(C)[C@H](NC(=O)[C@@H]1CCCN1C(=O)[C@H](CCCNC(=N)N)NC(=O)[C@H](CS)NC(=O)[C@H](Cc1c[nH]c2ccccc12)NC(=O)[C@H](CCCNC(=N)N)NC(=O)[C@@H](Cc1ccccc1)NC(=O)[C@H](Cc1c[nH]cn1)NC(=O)[C@H](CCC(=O)O)NC(=O)[C@H](CS)NC(=O)[C@H](CS)NC(=O)[C@H](CCCCN)NC(=O)[C@@H]1CC(=O)N[C@@H](CCCNC(=N)N)C(=O)N[C@@H](C)C(=O)N[C@@H](CC(=O)O)C(=O)N[C@H](Cc2ccc(O)cc2)C(=O)N1)C(N)=O [technetium-99m labelled] | – | – | C57 mice, bladder | iv, 0.037 MBq, 24 h | – | tissue uptake | 85.6 ± 1.21 %ID |
| NPH insulin | – | radioimmunoassay, item: insulin | female non-fasted rat, serum | 5 IU/kg, 1 to 24 h, dose 371 | – | Cmax | 2250 µIU/mL |

For quick reference, copied from above:
| Substance | target or system | assay | system | setting | scale | measurement | result |
| --- | --- | --- | --- | --- | --- | --- | --- |
| Insulin human | – | ELISA | rat, hippocampus | intranasal, 20 µg per nostril, 15 min | – | concentration | 141 ± 82.6 pg/mg tissue |
